Published values of several laboratories.
A part holds a random share of what one study measured. Values joined by “and” are separate records of one study, mostly repeats; a detail may differ.

Study 1
Target: Diamine acetyltransferase 1 (Homo sapiens, UniProt P21673)
Action: inhibitor
Concentration: 10 µM
Reference: control
Measurement: remaining activity
Construct (P21673 1-171): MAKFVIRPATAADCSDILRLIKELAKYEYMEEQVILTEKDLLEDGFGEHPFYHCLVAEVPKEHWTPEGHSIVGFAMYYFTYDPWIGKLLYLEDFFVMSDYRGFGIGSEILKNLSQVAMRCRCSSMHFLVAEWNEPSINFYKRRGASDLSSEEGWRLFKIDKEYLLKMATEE
N#C[C@H](O[C@@H]1O[C@H](CO[C@@H]2O[C@H](CO)[C@@H](O)[C@H](O)[C@H]2O)[C@@H](O)[C@H](O)[C@H]1O)c1ccccc1: 95.8%
NCCc1c[nH]c2ccccc12: 97.4%
CC(C)c1ccc(CO)cc1: 108%
CCCCCc1cc(O)c2c(c1)OC(C)(CCC=C(C)C)C=C2 (racemic): 91.1%

Study 2
SMILES: CC(C)S(=O)(=O)c1ccc2nccc(Nc3ccc4sc(C5CCCC5)nc4c3)c2c1.Cl
Method: CCK-8
Measurement: survival
L929 RIPK3-/- reexpressing RIPK3 K51A/R69H; 3.125 µM, together with: zVAD: 93.7% and 99.1% and 96.3% and 88.5% and 95.9%
L929 RIPK3-/- reexpressing RIPK3 K51A/R69H; 1.563 µM, together with: zVAD: 99% and 101% and 98.5% and 95.3% and 83.2%
L929 RIPK3-/- reexpressing RIPK3 K51A/R69H; 6.25 µM: 86.2% and 96.5% and 102% and 84.2% and 104%
L929 RIPK3-/- reexpressing RIPK3 K51A; 25 µM, together with: zVAD: 88.6% and 84% and 109% and 84.9%
L929 RIPK3-/- reexpressing RIPK3 K51A/R69H; 12.5 µM, together with: zVAD: 85% and 95.7% and 95.5% and 79.9%

Mixed results
CO[C@H]1CC=C2CCN3CCC4=C(CC(=O)OC4)[C@]23C1  nuclear SOX9 intensity (mouse MPNST tumor cells; high-content immunofluorescence imaging, item: nuclear SOX9; 10 µM, 12 h, mean of 2 replicates; reference: DMSO control, higher = more nuclear SOX9): 93.2 % of DMSO
CCOC(=O)[C@@H]1CSCC(=O)N[C@H](CC)C(=O)N(C)[C@@H](C)C(=O)N[C@@H](CC(C)C)C(=O)N(C)[C@H](C)C(=O)N(CC(C)C)CC(=O)N[C@H](CC(C)C)C(=O)N(C)[C@H](C)C(=O)N[C@@H](CC(C)C)C(=O)N1C  log k' (60) (PRP-column chromatography): 1.21

Repeated from above (study 1):
N#C[C@H](O[C@@H]1O[C@H](CO[C@@H]2O[C@H](CO)[C@@H](O)[C@H](O)[C@H]2O)[C@@H](O)[C@H](O)[C@H]1O)c1ccccc1: 95.8%
